Experimental data pooled from the literature.
Numbered parts are unrelated; each lists some results of a single study.
Chain of UniProt O60674 (whole entry, looked up): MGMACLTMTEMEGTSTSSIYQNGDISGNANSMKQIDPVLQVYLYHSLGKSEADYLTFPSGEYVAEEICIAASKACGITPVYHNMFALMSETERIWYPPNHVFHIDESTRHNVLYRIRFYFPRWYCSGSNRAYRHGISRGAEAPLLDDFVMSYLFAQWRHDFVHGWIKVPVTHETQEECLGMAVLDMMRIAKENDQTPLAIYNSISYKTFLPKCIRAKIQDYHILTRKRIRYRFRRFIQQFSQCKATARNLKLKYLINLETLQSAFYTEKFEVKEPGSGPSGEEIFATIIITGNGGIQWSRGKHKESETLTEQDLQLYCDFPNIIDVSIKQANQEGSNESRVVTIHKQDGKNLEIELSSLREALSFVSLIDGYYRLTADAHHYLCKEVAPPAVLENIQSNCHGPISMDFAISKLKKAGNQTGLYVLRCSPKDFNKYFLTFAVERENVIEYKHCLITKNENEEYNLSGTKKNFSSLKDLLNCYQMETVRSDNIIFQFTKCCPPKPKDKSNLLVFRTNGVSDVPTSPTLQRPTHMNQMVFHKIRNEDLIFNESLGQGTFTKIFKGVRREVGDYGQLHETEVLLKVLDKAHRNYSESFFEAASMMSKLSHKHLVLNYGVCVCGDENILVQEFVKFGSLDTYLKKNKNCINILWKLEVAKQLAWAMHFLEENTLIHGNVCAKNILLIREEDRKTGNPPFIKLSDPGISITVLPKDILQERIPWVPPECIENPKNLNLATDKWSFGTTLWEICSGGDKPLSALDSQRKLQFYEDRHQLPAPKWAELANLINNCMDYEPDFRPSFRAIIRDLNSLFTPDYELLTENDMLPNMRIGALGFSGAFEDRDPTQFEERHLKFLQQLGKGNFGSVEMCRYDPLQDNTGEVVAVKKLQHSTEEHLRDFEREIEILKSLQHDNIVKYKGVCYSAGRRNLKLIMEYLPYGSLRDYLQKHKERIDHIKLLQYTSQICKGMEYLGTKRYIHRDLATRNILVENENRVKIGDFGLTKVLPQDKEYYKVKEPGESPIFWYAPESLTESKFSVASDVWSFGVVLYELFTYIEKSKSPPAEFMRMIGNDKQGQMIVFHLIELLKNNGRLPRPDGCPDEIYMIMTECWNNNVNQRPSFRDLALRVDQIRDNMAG
Chain of UniProt Q13557 (whole entry, looked up): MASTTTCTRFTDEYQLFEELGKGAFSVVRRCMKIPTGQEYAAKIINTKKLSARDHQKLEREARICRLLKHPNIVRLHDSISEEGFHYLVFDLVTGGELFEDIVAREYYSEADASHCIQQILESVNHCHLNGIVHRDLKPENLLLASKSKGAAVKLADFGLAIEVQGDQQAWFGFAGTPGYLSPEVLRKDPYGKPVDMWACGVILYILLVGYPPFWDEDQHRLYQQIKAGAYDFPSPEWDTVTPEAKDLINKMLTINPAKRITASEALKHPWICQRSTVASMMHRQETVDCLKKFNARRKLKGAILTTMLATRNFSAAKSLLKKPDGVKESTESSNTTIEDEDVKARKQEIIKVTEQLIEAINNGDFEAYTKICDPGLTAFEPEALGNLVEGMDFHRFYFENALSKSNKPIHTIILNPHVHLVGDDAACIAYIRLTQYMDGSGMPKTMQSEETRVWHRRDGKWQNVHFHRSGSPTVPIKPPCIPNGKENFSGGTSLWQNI
Chain of UniProt Q9P2K8 (whole entry, looked up): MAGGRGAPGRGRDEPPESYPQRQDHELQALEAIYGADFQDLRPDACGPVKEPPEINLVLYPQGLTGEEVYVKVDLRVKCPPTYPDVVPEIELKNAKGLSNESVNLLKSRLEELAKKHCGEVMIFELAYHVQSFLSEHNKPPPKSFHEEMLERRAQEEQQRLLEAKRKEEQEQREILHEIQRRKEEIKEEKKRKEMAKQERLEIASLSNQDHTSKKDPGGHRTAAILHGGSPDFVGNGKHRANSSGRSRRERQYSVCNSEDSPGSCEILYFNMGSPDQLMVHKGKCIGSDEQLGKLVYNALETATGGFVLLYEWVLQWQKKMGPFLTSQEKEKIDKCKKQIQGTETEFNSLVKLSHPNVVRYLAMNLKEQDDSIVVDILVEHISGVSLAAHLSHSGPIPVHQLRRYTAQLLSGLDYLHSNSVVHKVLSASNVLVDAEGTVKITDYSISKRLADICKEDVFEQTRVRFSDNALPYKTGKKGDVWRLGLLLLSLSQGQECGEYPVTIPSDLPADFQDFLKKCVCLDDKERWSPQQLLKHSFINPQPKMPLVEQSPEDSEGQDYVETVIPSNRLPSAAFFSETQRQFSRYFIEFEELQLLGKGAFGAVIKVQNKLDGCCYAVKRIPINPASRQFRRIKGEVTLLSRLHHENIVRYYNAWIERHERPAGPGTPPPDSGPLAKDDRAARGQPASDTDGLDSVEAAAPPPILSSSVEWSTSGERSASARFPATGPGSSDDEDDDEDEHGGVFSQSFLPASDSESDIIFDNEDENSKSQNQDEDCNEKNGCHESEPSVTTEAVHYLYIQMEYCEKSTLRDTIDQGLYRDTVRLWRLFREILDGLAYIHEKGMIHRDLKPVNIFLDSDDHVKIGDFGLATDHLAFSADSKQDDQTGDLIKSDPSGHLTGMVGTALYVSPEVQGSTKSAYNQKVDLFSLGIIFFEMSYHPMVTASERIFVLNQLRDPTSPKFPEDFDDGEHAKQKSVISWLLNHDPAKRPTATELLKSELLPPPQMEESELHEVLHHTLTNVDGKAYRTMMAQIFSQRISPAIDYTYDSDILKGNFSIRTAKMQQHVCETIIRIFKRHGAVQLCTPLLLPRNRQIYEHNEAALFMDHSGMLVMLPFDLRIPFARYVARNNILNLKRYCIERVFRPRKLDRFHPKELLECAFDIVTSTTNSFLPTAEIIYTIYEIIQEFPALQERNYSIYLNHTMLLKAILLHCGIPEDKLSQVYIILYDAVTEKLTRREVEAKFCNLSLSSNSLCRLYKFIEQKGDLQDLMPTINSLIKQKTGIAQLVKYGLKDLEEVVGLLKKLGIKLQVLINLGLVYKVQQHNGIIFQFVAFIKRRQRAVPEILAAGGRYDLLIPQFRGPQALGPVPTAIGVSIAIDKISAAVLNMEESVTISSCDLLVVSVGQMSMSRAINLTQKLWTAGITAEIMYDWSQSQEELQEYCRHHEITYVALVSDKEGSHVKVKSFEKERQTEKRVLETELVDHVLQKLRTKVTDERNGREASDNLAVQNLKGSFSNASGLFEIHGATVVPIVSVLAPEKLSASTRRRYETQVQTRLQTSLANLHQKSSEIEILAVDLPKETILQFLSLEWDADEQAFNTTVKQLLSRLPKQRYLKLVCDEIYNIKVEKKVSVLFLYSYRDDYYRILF
Chain of UniProt Q9UKS7 (whole entry, looked up): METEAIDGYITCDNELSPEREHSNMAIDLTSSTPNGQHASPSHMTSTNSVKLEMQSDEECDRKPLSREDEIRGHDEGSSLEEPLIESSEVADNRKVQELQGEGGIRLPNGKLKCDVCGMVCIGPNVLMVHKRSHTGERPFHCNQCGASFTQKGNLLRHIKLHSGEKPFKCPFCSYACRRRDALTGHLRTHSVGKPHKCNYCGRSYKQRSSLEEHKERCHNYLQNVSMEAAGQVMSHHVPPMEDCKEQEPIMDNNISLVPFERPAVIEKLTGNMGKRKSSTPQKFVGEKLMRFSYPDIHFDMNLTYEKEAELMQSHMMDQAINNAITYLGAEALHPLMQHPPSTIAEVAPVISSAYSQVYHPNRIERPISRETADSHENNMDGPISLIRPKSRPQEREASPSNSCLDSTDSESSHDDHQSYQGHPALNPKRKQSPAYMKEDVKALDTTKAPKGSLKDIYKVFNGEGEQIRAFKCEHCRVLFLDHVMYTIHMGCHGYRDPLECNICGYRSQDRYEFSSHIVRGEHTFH

Series 1 — effect on: binding; method: phage display NGS; molecule type: peptide; tested at: concentration not given; notes: panning round 2; relative to: input library; measurement: enrichment fold change
Target: UDP-N-acetylglucosamine--peptide N-acetylglucosaminyltransferase 110 kDa subunit (OGT, Homo sapiens, UniProt O15294)
Chain of UniProt O15294 (whole entry, looked up): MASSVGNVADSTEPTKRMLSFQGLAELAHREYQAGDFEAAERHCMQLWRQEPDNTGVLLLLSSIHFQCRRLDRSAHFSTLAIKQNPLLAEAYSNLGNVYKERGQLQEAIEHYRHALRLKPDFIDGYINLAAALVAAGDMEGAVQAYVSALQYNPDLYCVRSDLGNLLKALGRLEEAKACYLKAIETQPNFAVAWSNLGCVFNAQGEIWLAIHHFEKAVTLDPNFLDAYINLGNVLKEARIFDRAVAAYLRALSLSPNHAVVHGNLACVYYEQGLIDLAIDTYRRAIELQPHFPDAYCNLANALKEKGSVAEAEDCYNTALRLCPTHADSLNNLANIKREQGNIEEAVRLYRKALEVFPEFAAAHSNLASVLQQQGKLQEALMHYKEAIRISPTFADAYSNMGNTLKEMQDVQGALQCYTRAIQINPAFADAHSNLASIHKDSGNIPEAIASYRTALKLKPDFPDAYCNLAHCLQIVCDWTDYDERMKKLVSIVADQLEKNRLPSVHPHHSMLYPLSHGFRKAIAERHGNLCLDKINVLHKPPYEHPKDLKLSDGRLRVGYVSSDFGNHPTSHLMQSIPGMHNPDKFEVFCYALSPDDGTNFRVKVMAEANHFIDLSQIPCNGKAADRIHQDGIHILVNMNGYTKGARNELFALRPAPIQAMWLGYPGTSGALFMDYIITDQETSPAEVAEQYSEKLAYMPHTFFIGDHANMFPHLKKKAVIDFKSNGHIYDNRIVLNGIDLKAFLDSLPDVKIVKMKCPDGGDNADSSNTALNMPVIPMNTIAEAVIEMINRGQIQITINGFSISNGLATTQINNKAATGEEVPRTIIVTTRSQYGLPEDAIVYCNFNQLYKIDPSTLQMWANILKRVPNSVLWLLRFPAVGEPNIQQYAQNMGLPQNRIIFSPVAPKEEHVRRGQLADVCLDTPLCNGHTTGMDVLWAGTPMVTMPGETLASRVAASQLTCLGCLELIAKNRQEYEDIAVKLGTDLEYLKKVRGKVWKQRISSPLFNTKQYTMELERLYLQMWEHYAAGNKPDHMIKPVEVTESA
NTTAPQLVYPPMYQI: 8.78
HPTAHYHHQAIRHFQ: 3.93
IHAGLEPKYQISYTY: 101
HWRPHHHMGEEINV: 5.19
GHHTHREYGYPSYQH: 8.99
WPMDFPMFTHHHFH: 7.22
LTPFHTHHGHVTRG: 4.18
ESIYKPRYQISIAYA: 24.5

Series 2 — measurement: IC50
SMILES: COC(=O)c1cc(N(C)C(=O)c2ccn3ncc(-c4ccc(C(=O)O)cc4)c3c2)ccc1Cl
Tyrosine-protein kinase JAK2 (JAK2, Homo sapiens, UniProt O60674); enzyme activity, inhibitor: > 30 µM
Cyclin-dependent kinase 2 (CDK2, Homo sapiens, UniProt P24941); enzyme activity, inhibitor: 21.8 µM
Tyrosine-protein kinase ABL1 (ABL1, Homo sapiens, UniProt P00519); enzyme activity, inhibitor: > 30 µM
Insulin receptor (INSR, Homo sapiens, UniProt P06213); enzyme activity, inhibitor: > 30 µM
D(3) dopamine receptor (DRD3, Homo sapiens, UniProt P35462); cell-free assay: > 30 µM
Calcium/calmodulin-dependent protein kinase type II subunit delta (CAMK2D, Homo sapiens, UniProt Q13557); enzyme activity, inhibitor: 4.25 µM
Prostaglandin G/H synthase 2 (PTGS2, Homo sapiens, UniProt P35354); cell-free assay, inhibitor: > 30 µM
rat benzodiazepine receptor; binding: > 30 µM
eIF-2-alpha kinase GCN2 (EIF2AK4, Homo sapiens, UniProt Q9P2K8); enzyme activity, inhibitor: > 30 µM

Single results of other studies
O=C1CCC(N2Cc3c(ccc4c3OCC43CCCN(Cc4ccccc4)CC3)C2=O)C(=O)N1 (stereo not shown)
protein remaining (CRBN/Zinc finger protein Helios (Homo sapiens, UniProt Q96SW2+Q9UKS7); degrader, HiBiT; HEK293; 0.1694 nM): 104%

COc1ccc2c(c1)/C(=C/c1cnc[nH]1)C(=O)N2
remaining activity (Activin receptor type-1-like (ACVRL1, Homo sapiens, UniProt P37023); enzyme activity, inhibitor; 0.5 µM; relative to: control): 98.7%

Repeated from above (series 1):
WPMDFPMFTHHHFH: 7.22
NTTAPQLVYPPMYQI: 8.78
LTPFHTHHGHVTRG: 4.18
